Experimental data gathered from unrelated publications.
Numbers after ± are the reported error. Values after ≈ are worked out from the molar mass of the structure shown.

CC(=O)N[C@H](CCCCNC(=O)C(C)F)C(=O)N[C@@H](CS)C(=O)N[C@@H](CS)C(=O)N[C@@H](CCC(=O)O)C(=O)N[C@@H](Cc1c[nH]cn1)C(=O)N[C@H](Cc1ccccc1)C(=O)N[C@@H](CCCNC(=N)N)C(=O)N[C@@H](Cc1c[nH]c2ccccc12)C(=O)N[C@@H](CS)C(=O)N[C@@H](CCCNC(=N)N)C(=O)N1CCC[C@H]1C(=O)N[C@H](C(N)=O)C(C)C (some centres unmarked) [fluorine-18 labelled] has a tissue uptake of 1.36 ± 0.22 %ID/g (C57BL/6 mice, male, B16-F10 tumour, liver; intravenous, 1 h).
For CC1N=C(c2ccccc2F)c2cc(Nc3ccccc3C#N)ccc2NC1=O (centres unmarked), the solubility was 6.98 µM (≈ 2.68 µg/mL) (shake flask; PBS; 24 h, pH 7.4).
O=C(O)C(F)(F)C(F)(F)C(F)(F)C(F)(F)C(F)(F)C(F)(F)C(F)(F)F — result for “plasma concentration ratio”: 2000 to 6000 fold (C57BL/6J mice; oral, dose not given, 12 weeks; reference: mice over human general population).
The CC50 of N#CC(=C(/N)Sc1ccccc1N)/C(C#N)=C(/N)Sc1ccccc1N is reported as 72.3 µM (cell viability, MTT; mouse lung slices; 48 h).
N[C@@H](CC(=O)O)C(=O)N[C@@H](CCC(=O)O)C(=O)NCC(=O)N1CCC[C@H]1C(=O)O: spleen index “no effect” (ICR mouse, tail bleeding; oral, 450 µmol/kg; reference: vehicle).
For CCOC(=O)c1cncn1Cc1ccccc1, the ID50 was 2.7 ± 0.3 mg/kg (serum corticosterone, inhibitor; Sprague-Dawley rat; intravenous, 15 min, 50% reduction, with: ACTH1-24).
The AUC(0-t) of CC[C@H](C)[C@H](NC(=O)[C@@H](N)CCCNC(=N)N)C(=O)N[C@H](C(=O)N1CCC[C@H]1C(=O)N[C@@H](C)C(N)=O)C(C)C is reported as 1 ± 0.321 µg·h/mL (healthy volunteers, both sexes, plasma; intravenous infusion, 3.0 mg/kg daily, day 7, multiple ascending dose).
With CCCCCCCCCCCCCC[N+](C)(C)C the hepatic clearance was 0.505 mL/h/g liver (in vitro-in vivo extrapolation; human).
With CCCCCOc1ccc(-c2cc(-c3ccc(C(=O)N[C@H]4C[C@@H](O)[C@@H](O)NC(=O)[C@@H]5[C@@H](O)[C@@H](C)CN5C(=O)[C@H]([C@H](O)CC(N)=O)NC(=O)[C@H]([C@H](O)[C@@H](O)c5ccc(O)c(OS(=O)(=O)O)c5)NC(=O)[C@@H]5C[C@@H](O)CN5C(=O)[C@H]([C@@H](C)O)NC4=O)cc3)no2)cc1 the AUC(0-24) was 413 µg·h/mL (preterm neonates below 1000 g, plasma; intravenous, 15 mg/kg/day, repeated dosing, mean).
With N#Cc1ccc(N2N=C3c4ccc(C(=O)N5CCC(O)CC5)nc4CC[C@@H]3[C@@H]2C2CCCC2)cc1Cl the AUClast ratio was roughly 1.7 fold (human, plasma; concentration not given, with: itraconazole; reference: with itraconazole over alone).
For C[C@@H]1COCCN1c1cc(C2([S@](C)(=N)=O)CC2)nc(-c2cc[nH]c3nccc2-3)n1, tolerability read “not toxic” (patients with advanced solid tumours; oral, 20 mg twice daily, days 4 to 13 of 10-day cycle, phase I dose escalation, with: carboplatin AUC5).
